Assay results collected from several papers.
Each line is one published result; not all experiments were run side by side. ± gives the spread as reported.
ESR1: Estrogen receptor (ESR1, Homo sapiens, UniProt P03372)
Sequence of UniProt P03372 (whole entry, looked up): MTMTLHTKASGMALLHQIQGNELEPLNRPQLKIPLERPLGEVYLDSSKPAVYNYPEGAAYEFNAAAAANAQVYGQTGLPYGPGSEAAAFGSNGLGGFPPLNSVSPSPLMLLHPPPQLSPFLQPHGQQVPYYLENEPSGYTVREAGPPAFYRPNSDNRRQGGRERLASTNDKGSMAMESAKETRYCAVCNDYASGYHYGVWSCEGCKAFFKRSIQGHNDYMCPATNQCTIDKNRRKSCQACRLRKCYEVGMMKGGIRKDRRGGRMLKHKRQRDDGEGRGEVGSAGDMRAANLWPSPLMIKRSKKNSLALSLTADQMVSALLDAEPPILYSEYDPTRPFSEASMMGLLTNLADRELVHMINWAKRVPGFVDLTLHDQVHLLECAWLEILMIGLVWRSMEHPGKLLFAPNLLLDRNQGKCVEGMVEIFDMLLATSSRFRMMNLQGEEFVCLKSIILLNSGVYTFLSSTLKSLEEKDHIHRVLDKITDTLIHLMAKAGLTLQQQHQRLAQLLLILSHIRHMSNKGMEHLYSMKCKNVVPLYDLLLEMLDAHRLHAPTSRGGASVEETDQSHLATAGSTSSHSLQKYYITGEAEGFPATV

`CCc1c(-c2ccc(O)cc2)nn(-c2ccc(O)cc2)c1-c1ccc(OCCN2CCCCC2)cc1` — result for “relative binding affinity”: 11.5 ± 1.5 (ESR1; competitor, radioligand binding; concentration not given; relative to: estradiol).
`CCCCCCCCCCCCSc1nc2c([nH]1)c(=O)n(C)c(=S)n2C` gave a reporter activity of 112% (ESR1; reporter gene, ERE luciferase; T47D-KBluc; 10 µM, 24 h, together with: estradiol 5 nM; relative to: maximal luciferase activity).
`CCC(=C(c1ccc(O)cc1)c1ccc(OCCN(C)CCOCCOCCOCCOCCOCCOCCOCCOCCOCCN(C)CCOc2ccc(C(=C(CC)c3ccccc3)c3ccc(O)cc3)cc2)cc1)c1ccccc1` (mixture of isomers) — result for “relative binding affinity”: 28.1 ± 3.7% (ESR1; ligand, radioligand competition binding; concentration not given, together with: [3H]estradiol tracer; relative to: estradiol).
For `CCCCCCCCSc1nc2c([nH]1)c(=S)n(C)c(=S)n2C`, the reporter activity was 77% (ESR1; reporter gene, ERE luciferase; T47D-KBluc; 10 µM, 24 h, together with: estradiol 5 nM; relative to: maximal luciferase activity).
Under “relative binding affinity”, `CCCc1c(-c2ccc(O)cc2)nn(-c2ccc(O)cc2)c1-c1ccc(OCCN2CCCCC2)cc1` is recorded as 6.8 ± 1.1 (ESR1; competitive radioligand binding; concentration not given; relative to: estradiol, higher = stronger binding).
`CCC(=C(c1ccc(O)cc1)c1ccc(OCCN(C)CCOCCOCCOCCOCCOC)cc1)c1ccccc1` (mixture of isomers): “relative binding affinity” 12.4 ± 2.2% (ESR1; competitor, radioligand competition binding; concentration not given, together with: [3H]estradiol; relative to: estradiol).
`C[C@@H]1Cc2c([nH]c3ccccc23)[C@@H](c2c(F)cc(/C=C/C(=O)O)cc2F)N1C12CC(C1)C2` — result for “patients with decreased ER”: 78.8% (ESR1; IHC H-score; human patients, tumour biopsies; dose not given).
Under inhibition, `CCCCC(C)Sc1nc2c([nH]1)c(=S)n(C)c(=O)n2C` (centres unmarked) is recorded as “inactive” (ESR1; reporter gene; T47D-KBluc; 10 µM, together with: estradiol).
`CCC(=C(c1ccc(O)cc1)c1ccc(OCCN(C)CCOCCOCCOCCOCCN(C)CCOc2ccc(C(=C(CC)c3ccccc3)c3ccc(O)cc3)cc2)cc1)c1ccccc1` (mixture of isomers): “relative binding affinity” 13.6 ± 1.3% (ESR1; competitor, radioligand competition binding; concentration not given, together with: [3H]estradiol; relative to: estradiol).
The reporter activity of `CCCCCCCCSc1nc2c([nH]1)c(=O)n(C)c(=S)n2C` is reported as 79% (ESR1; reporter gene, ERE luciferase; T47D-KBluc; 10 µM, 24 h, together with: estradiol 5 nM; relative to: maximal luciferase activity).
Under “relative binding affinity”, `O=S(=O)([C@@H]1C[C@@H]2O[C@H]1C(c1ccc(O)cc1)=C2c1ccc(O)cc1)N(CC(F)(F)F)c1ccc(Cl)cc1` is recorded as 0.961 (ESR1; concentration not given; relative to: estradiol).
`CC/C(=C(\c1ccc(O)cc1)c1ccc(OCCN(C)CCOCCOCCOCCN(C)CCOc2ccc(/C(=C(\CC)c3ccccc3)c3ccc(O)cc3)cc2)cc1)c1ccccc1`: “relative binding affinity” 8.16% (ESR1; competitor, radioligand competition binding; concentration not given, together with: [3H]estradiol; relative to: estradiol).
The fold activation of `CCC(=C(c1ccc(Cl)cc1)c1ccc(OCCN2CCCCC2)cc1)c1ccccc1` is reported as 1.99 ± 0.23 fold (ESR1; reporter gene, agonist, yeast estrogen screen; 1 µM; relative to: DMSO).
With `CCCCCCCCSc1nc2c([nH]1)c(=O)n(C)c(=O)n2C` the reporter activity was 112% (ESR1; reporter gene, ERE luciferase; T47D-KBluc; 10 µM, 24 h, together with: estradiol 5 nM; relative to: maximal luciferase activity).
Under “β-galactosidase activity fold”, `CC(=C(c1ccc(O)cc1)c1ccc(Cl)cc1)c1ccc(Cl)cc1` is recorded as 12.8 (ESR1; reporter gene, agonist, yeast estrogen screen; 1 µM; relative to: DMSO).
The reporter activity of `CCCCCCCCCCCSc1nc2c([nH]1)c(=O)n(C)c(=S)n2C` is reported as 105% (ESR1; reporter gene, ERE luciferase; T47D-KBluc; 10 µM, 24 h, together with: estradiol 5 nM; relative to: maximal luciferase activity).
`CCC(=C(c1ccc(Cl)cc1)c1ccc(OCCN2CCCCCC2)cc1)c1ccccc1` — result for “β-galactosidase activity fold”: 2.98 (ESR1; reporter gene, agonist, yeast estrogen screen; 1 µM; relative to: DMSO).
For `CCC(=C(c1ccc(O)cc1)c1ccc(OCCN(C)CCOCCOCCOCCOCCOCCOCCOCCOCCOCCOCCOCCN(C)CCOc2ccc(C(=C(CC)c3ccccc3)c3ccc(O)cc3)cc2)cc1)c1ccccc1` (mixture of isomers), “relative binding affinity” read 27.9 ± 4% (ESR1; ligand, radioligand competition binding; concentration not given, together with: [3H]estradiol tracer; relative to: estradiol).
`Oc1ccc(-c2cc(-c3ccc(OCCN4CCCCC4)cc3)n(-c3ccc(O)cc3)n2)cc1`: “relative binding affinity” 5.72 ± 0.36 (ESR1; competitive radioligand binding; concentration not given; relative to: estradiol, higher = stronger binding).
`CC(=O)N[C@@H](Cc1c[nH]cn1)C(=O)N[C@@H](CCCCN)C(=O)N[C@@]1(C)C[C@H](C)C/C=C\CCC[C@@](C)(C(=O)N[C@@H](CC(C)C)C(=O)N[C@@H](CCC(N)=O)C(=O)N[C@@H](CC(=O)O)C(=O)N[C@@H](CO)C(N)=O)NC(=O)[C@H](CCCNC(=N)N)NC(=O)[C@H](Cc2c[nH]cn2)NC(=O)[C@H](CC(C)C)NC1=O` gave a potency ratio of 12 fold (Estrogen receptor, ligand-binding domain; with SRC3 (ESR1, Homo sapiens, UniProt P03372); ERα/SRC3 interaction, inhibitor, TR-FRET; relative to: wild-type peptide).
With `CCC(=C(c1ccc(Cl)cc1)c1ccc(OCCN2CCCCC2)cc1)c1ccc(Cl)cc1` the fold activation was 1.14 fold (ESR1; reporter gene, agonist, yeast estrogen screen; 1 µM; relative to: DMSO).
`CCCCCCCCCSc1nc2c([nH]1)c(=O)n(C)c(=S)n2C` has a reporter activity of 92% (ESR1; reporter gene, ERE luciferase; T47D-KBluc; 10 µM, 24 h, together with: estradiol 5 nM; relative to: maximal luciferase activity).
Under “OHT-induced ER degradation”, `O=C1c2c(O)cc(O)cc2-c2c(-c3ccc(O)cc3)oc3cc(O)cc1c23` is recorded as “inhibited” (ESR1; western blot; MCF7; 10 µM, 0.5 h pretreatment, together with: 1 µM 4-hydroxytamoxifen 5.5 h).
The fold activation of `CCC(=C(c1ccc(Cl)cc1)c1ccc(OCCN2CCCC2)cc1)c1ccccc1` is reported as 1.13 ± 0.03 fold (ESR1; reporter gene, agonist, yeast estrogen screen; 1 µM; relative to: DMSO).
For `CC/C(=C(\c1ccc(O)cc1)c1ccc(OCCN(C)CCOCCOCCOCCOCCOCCOCCOCCN(C)CCOc2ccc(/C(=C(\CC)c3ccccc3)c3ccc(O)cc3)cc2)cc1)c1ccccc1`, “relative binding affinity” read 32.3% (ESR1; competitor, radioligand competition binding; concentration not given, together with: [3H]estradiol; relative to: estradiol).
For `CCC(=C(c1ccc(Cl)cc1)c1ccc(OCCN2CCCC2)cc1)c1ccc(OC)cc1`, the fold activation was 1.77 ± 0.16 fold (ESR1; reporter gene, agonist, yeast estrogen screen; 1 µM; relative to: DMSO).
For `CCC(=C(c1ccc(O)cc1)c1ccc(OCCN(C)CCOCCOCCOCCOCCOCCN(C)CCOc2ccc(C(=C(CC)c3ccccc3)c3ccc(O)cc3)cc2)cc1)c1ccccc1` (mixture of isomers), “relative binding affinity” read 10.9 ± 2.3% (ESR1; competitor, radioligand competition binding; concentration not given, together with: [3H]estradiol; relative to: estradiol).
With `CCCCCSc1nc2c([nH]1)c(=S)n(C)c(=S)n2C` the reporter activity was 72% (ESR1; reporter gene, ERE luciferase; T47D-KBluc; 10 µM, 24 h, together with: estradiol 5 nM; relative to: maximal luciferase activity).
`CCC(=C(c1ccc(Cl)cc1)c1ccc(OCCN2CCOCC2)cc1)c1ccc(OC)cc1` has a fold activation of 6.46 ± 0.69 fold (ESR1; reporter gene, agonist, yeast estrogen screen; 1 µM; relative to: DMSO).
